# Measured values of several laboratories.
# Every numbered part comes from another study and shows a few of its results, in no order.

# Study 1 — organism: Sarcocystis neurona; read-out: parasite growth; concentration: 10 µM; time: 96 h; setting: first screen; relative to: untreated
SMILES,log2 fold change
N[C@@H](C(=O)N[C@@H]1C(=O)N2C(C(=O)O)=C(Cl)CS[C@H]12)c1ccccc1,-0.0758
NC(=O)c1cnccn1,0.33
Cc1cc(NS(=O)(=O)c2ccc(N)cc2)no1,0.17
COc1ccc2c3c1O[C@H]1C[C@@H](O)C=C[C@@]31CCN(C)C2,0.15

# Study 2 — read-out: enzyme activity; mode: inhibitor; concentration: 0.5 µM; relative to: control
# Target: Tyrosine-protein kinase receptor TYRO3 (TYRO3, Homo sapiens, UniProt Q06418)
# UniProt Q06418, sequence (whole entry, looked up): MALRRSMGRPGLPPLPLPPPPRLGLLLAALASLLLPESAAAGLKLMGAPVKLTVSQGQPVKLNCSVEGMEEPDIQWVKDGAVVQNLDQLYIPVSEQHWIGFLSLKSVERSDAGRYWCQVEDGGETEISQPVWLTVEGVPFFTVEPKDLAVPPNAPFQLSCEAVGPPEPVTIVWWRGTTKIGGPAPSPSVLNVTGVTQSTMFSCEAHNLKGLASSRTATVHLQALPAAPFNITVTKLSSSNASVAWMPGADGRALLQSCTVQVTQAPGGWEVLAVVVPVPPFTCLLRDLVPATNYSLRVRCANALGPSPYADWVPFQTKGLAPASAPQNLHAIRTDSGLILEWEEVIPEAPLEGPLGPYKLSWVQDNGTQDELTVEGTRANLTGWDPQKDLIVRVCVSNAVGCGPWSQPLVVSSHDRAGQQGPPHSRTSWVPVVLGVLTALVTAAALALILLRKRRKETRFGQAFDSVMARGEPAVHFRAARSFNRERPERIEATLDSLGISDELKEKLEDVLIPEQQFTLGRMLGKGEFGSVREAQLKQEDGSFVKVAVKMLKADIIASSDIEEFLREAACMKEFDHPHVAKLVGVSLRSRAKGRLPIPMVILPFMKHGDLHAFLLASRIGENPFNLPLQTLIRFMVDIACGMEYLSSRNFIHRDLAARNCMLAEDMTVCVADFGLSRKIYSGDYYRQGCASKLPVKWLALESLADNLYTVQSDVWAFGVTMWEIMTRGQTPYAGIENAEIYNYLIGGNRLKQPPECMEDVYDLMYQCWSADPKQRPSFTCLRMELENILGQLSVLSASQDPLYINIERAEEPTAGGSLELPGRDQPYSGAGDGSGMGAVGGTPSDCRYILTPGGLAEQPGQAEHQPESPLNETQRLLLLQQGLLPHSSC
SMILES,remaining activity [%]
Nc1ccc2ncnc(NCCc3ccc(Oc4ccccc4)cc3)c2c1,101
O=C1NC(=O)C(c2cn(CCCn3ccnc3)c3ccccc23)=C1Nc1ccccc1,99.6
CC(C)[C@H](CO)Nc1nc(Nc2cc(N)cc(Cl)c2)c2ncn(C(C)C)c2n1,103
Cc1nc(-c2ccccc2)c(-c2ccncc2)o1,109
COc1ccc(OC)c2c(=S)c3ccccc3[nH]c12,97.1
O=C(CCCc1ccc(-c2ccccc2F)cc1)Nc1ccc(O)cc1,98.2
COc1ccc(C(=O)Nc2sc3c(c2C(N)=O)CCCC3)cc1OC,98.1
C#Cc1cccc(Nc2ncnc3cc(OCCOC)c(OCCOC)cc23)c1,97
Cc1ccc(NC(=O)c2ccc(CN3CCN(C)CC3)cc2)cc1Nc1nc(-c2cccnc2)cs1,98.9
Cc1cccc(-c2[nH]c(C(C)(C)C)nc2-c2ccc3c(c2)OCO3)n1,102
COc1ccc(CNC(=O)Nc2ncc([N+](=O)[O-])s2)cc1,100
CO[C@H]1C[C@@H]2CC[C@@H](C)[C@@](O)(O2)C(=O)C(=O)N2CCCC[C@H]2C(=O)O[C@H]([C@H](C)C[C@@H]2CC[C@@H](O)[C@H](OC)C2)CC(=O)[C@H](C)/C=C(\C)[C@@H](O)[C@@H](OC)C(=O)[C@H](C)C[C@H](C)/C=C/C=C/C=C/1C,98.5
COc1cc2nccc(Oc3ccc(NC(=S)NC(=O)c4ccccc4C)cc3)c2cc1OC,92.2
Cc1ccc(Nc2nccc(N(C)c3ccc4c(C)n(C)nc4c3)n2)cc1S(N)(=O)=O,92
Cn1sc(=O)n(Cc2ccccc2)c1=O,99.9

# Study 3 — read-out: binding; technique: radioligand binding; concentration: 10 µM
# Target: Histamine H2 receptor (HRH2, Homo sapiens, UniProt P25021)
# UniProt P25021, sequence (whole entry, looked up): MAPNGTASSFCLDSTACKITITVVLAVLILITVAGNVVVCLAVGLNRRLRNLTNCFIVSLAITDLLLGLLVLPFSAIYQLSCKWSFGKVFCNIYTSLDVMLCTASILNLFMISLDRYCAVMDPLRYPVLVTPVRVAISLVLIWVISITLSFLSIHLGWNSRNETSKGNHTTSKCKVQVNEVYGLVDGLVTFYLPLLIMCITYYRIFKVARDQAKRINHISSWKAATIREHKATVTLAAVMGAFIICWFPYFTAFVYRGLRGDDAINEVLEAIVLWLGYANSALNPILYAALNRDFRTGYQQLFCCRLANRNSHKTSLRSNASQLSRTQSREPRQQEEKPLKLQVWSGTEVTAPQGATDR
Compound,inhibition
CN([C@@H]1CCc2c(CC(=O)O)c3cc(S(C)(=O)=O)ccc3n2C1)S(=O)(=O)c1ccc(F)cc1,-10.7%
CCOCCn1cc(C(=O)Nc2ccc(-n3nc(-c4cccnc4)cc3C(F)(F)F)cn2)ccc1=O,-3.48%
C[C@@H]1CN(c2cc(-c3nn(C)c4ccc(OC5(C)CC5)cc34)ncn2)C[C@H](C)O1,18.4%
CC(=O)N1CCC(c2ccc(C(=O)NC(=N)N)cc2C(F)(F)F)CC1,-11.2%
CS(=O)(=O)NCC[C@H](NC(=O)c1cncc2c1cnn2-c1ccc(F)cc1)c1ccnc(S(C)(=O)=O)c1,2.46%
O=C([C@H]1C[C@H](O)CN1c1ccc(Cl)cc1)N1CC2COCC(C1)N2Cc1ccc(Cl)cc1,8.13%
COc1cccc(CNC(=O)c2nc3scc(COCc4ccc(C(=O)O)cc4)c3c(=O)[nH]2)c1,28.4%

# Study 4 — species: mouse; medium: microsomes or S9; concentration: 2 µM; time: 0.5 h
Structure (SMILES),remaining compound [%]
NS(=O)(=O)c1cccc(S(=O)(=O)N2CCCc3c2cccc3S(N)(=O)=O)c1,103
CCc1cnc(N2CCC(Oc3cc(=O)n(-c4ccc(OC)nc4)c(=O)n3C)CC2)nc1,> 100
CCOC(=O)N1CCN(C(=O)C2=C(C)C(=O)OC23CCN(S(=O)(=O)CC)CC3)CC1,78.8
Cc1ccc(S(=O)(=O)Nc2nc(C)cc(=O)[nH]2)cc1,79.3
Cc1cc2cc[nH]c2cc1NC(=O)Cc1ccc(F)cc1F,2.79
COc1cc(=O)n(C)cc1C(=O)Nc1nc(-c2ccccn2)cs1,18.1
COc1cc(C(=O)N2CCCCCC2)c(N(C)S(C)(=O)=O)cc1OC,15.5

# Repeated from above (study 4):
Structure (SMILES),remaining compound [%]
CCOC(=O)N1CCN(C(=O)C2=C(C)C(=O)OC23CCN(S(=O)(=O)CC)CC3)CC1,78.8
COc1cc(C(=O)N2CCCCCC2)c(N(C)S(C)(=O)=O)cc1OC,15.5
CCc1cnc(N2CCC(Oc3cc(=O)n(-c4ccc(OC)nc4)c(=O)n3C)CC2)nc1,> 100
